Measurements from different studies.
Parts stem from different laboratories: compare values within a part only. Positions count from the first letter of the parent shown.

Set 1
Target: CCND1, cyclin fold, Cln2 fusion (human)
Technique: yeast growth competition, sequencing
Sample: yeast
Notes: weak parent motif
Relative to: not given
Reading: higher = stronger binding
Parent: BRCA2 docking peptide (human); PSIKRNLLNEFDR
`N9R`: “normalised enrichment score” 0.559.
`N6R`: “normalised enrichment score” -0.111.
`N9V`: “normalised enrichment score” 0.359.
Under “normalised enrichment score”, `E10C` is recorded as 0.167.

Set 2
Target: Interferon regulatory factor 7, full length, phosphomimetic (IRF7, Homo sapiens, UniProt Q92985, residues 1-503, S471D/S472D/S475D/S476D/S477D/S483D/S484D/S487D)
UniProt Q92985, sequence (whole entry, unmodified, looked up): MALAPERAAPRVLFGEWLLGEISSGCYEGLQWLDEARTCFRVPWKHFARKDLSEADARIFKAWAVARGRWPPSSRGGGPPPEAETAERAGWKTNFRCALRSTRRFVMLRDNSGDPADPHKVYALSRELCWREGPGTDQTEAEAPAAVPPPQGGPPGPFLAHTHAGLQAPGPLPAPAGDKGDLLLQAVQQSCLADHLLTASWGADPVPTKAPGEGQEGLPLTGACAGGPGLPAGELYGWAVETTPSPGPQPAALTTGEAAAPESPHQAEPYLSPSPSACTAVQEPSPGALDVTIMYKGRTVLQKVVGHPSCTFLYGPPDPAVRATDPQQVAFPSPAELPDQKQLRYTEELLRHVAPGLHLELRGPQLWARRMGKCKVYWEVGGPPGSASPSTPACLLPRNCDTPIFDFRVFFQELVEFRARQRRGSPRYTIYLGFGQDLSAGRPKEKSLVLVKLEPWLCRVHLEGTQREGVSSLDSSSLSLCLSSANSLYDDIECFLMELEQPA
Technique: protein-binding microarray
Form: double-stranded DNA, one strand shown
Sample: in vitro
Concentration: 2200 nM top
Notes: 60-bp whole probe
With: salmon DNA 0.4 mg/ml
Relative to: random background probes
Reading: higher = stronger binding
All sequences stand within: GCCTAGCAC … GTCTTGATTCGCTTGACGCTGCTG
For `TTAGGTTTCGGTCTCGGTAAGTGCTAG`, “fitted relative affinity” read 6.55 z-score.
Under “fitted relative affinity”, `TTAGATATCGGGTATCGATAAGTGCTA` is recorded as 0.000316 z-score.
Under “fitted relative affinity”, `TCACTTTACACACATCATCTTGTGCTA` is recorded as 2.76 z-score.
For `TTAGGTTTCGGGTTTTGGTTAGTGCTA`, “fitted relative affinity” read 7.51 z-score.
`CCCTTTTAAGTTCTCTGAAGGTGCTAG` — result for “fitted relative affinity”: 1.21 z-score.
`GACGGTTGCGACTATCGGGACGTGCTA`: “fitted relative affinity” -0.129 z-score.
`TTCGGTTTCGACTTTCGGTTAGTGCTA` — result for “fitted relative affinity”: 12.5 z-score.

Set 3
Target: RNA binding protein fox-1 homolog 2, RRM domain, GST-SBP tag (RBFOX2, Homo sapiens, UniProt O43251-10, residues 100-194)
Technique: RNA Bind-n-Seq
Form: RNA
Sample: in vitro
Concentration: 365 nM
Notes: natural RNA segment, single round, ends assumed
Relative to: no-protein control
Reading: higher = stronger binding
All sequences stand within: GGGAGUUCUACAGUCCGACGAUC … UGGAAUUCUCGGGUGCCAA
Construct (chain): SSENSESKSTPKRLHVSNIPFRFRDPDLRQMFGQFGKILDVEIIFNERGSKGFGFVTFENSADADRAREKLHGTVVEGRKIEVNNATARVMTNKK
`CUGUGCCCCCGAGCUGCCCCCACCCCCUCACAGGGUCCCUCAGAUUAUAGGUGCCCAGGCUGAGGUGAAGAGGCCUGGGGGCCCUGCCUUCCGGGCGCUCCUGGACCCUG`: “RBNS enrichment (R)” 0.455.
`CCACACUUUCAAAGAGAAACCCCUCCAGAACUCCCACCCUGACAGCCCAACACCACCUUCCUCCUGGCUUCCAGGGGGCAGCCCAGUGGAAUGGAAAGAAUGUGGGAUUU`: “RBNS enrichment (R)” 0.415.
For `GACUAGGGAGAGGCUUAGAUACUUUAGUGUAUUUAAAGAGCAUUUCAGUUAACUUUUUCAGCUAUUUUUAAAGUUUGUGAAUGGAGUGUUAUUUUGGACAUUCUUAAAUA`, “RBNS enrichment (R)” read 0.893.
`ACAAAACAGCUACCAGCGGUACAGAGCGGUGAUCAAAGCCGAGUACUUACAACUCUGGUAAGCCUAGCUUCUCCGCCUCAGCCCUUCUGCUUCUGGAAGGGCUAUCCUGG` — result for “RBNS enrichment (R)”: 0.214.
Under “RBNS enrichment (R)”, `UUGAAGGGUGUUUUAGGGUAUCUGCCCACAGAUUUUCUCCAAACAAUUGGGAAGUGCCUAGAGUCCAGGCCCCGAUCAUCAAAGAUGUCUAUAUUGUAUAAUAUUUAAAG` is recorded as 0.298.
`UCCCAGCUGUCCUAGUGUCAAUAAAGCAUUGUGUGUAAAUGUUCUUCUUGCAUUCUUUCUAAGCAGUCAGCAAGUAUUUAUUAAAUGCUUUAAGGAAAACAAUAAUAGAG` — result for “RBNS enrichment (R)”: 0.591.

Other studies, line by line
With `PhoQ, residues 284 288 289 292 302 303 TLSLKA` the fold induction was 0.923 (PhoP, residues 12 14 15 18 19 AWHSL (Escherichia coli, UniProt P23836); Sort-seq, measured: YFP reporter; E. coli; PhoQ-PhoP variant library, with: 10 µM Mg2+; relative to: high Mg2+ state, higher = stronger signaling).

Excerpt of the above (set 2):
`GACGGTTGCGACTATCGGGACGTGCTA`: “fitted relative affinity” -0.129 z-score.
`TTCGGTTTCGACTTTCGGTTAGTGCTA` — result for “fitted relative affinity”: 12.5 z-score.
